Experimental data from different studies.
Protocols differ between the studies behind these lines. Numbers after ± are the reported error. Values after ≈ are worked out from the molar mass of the structure shown.
UniProt P35579, sequence (whole entry, looked up): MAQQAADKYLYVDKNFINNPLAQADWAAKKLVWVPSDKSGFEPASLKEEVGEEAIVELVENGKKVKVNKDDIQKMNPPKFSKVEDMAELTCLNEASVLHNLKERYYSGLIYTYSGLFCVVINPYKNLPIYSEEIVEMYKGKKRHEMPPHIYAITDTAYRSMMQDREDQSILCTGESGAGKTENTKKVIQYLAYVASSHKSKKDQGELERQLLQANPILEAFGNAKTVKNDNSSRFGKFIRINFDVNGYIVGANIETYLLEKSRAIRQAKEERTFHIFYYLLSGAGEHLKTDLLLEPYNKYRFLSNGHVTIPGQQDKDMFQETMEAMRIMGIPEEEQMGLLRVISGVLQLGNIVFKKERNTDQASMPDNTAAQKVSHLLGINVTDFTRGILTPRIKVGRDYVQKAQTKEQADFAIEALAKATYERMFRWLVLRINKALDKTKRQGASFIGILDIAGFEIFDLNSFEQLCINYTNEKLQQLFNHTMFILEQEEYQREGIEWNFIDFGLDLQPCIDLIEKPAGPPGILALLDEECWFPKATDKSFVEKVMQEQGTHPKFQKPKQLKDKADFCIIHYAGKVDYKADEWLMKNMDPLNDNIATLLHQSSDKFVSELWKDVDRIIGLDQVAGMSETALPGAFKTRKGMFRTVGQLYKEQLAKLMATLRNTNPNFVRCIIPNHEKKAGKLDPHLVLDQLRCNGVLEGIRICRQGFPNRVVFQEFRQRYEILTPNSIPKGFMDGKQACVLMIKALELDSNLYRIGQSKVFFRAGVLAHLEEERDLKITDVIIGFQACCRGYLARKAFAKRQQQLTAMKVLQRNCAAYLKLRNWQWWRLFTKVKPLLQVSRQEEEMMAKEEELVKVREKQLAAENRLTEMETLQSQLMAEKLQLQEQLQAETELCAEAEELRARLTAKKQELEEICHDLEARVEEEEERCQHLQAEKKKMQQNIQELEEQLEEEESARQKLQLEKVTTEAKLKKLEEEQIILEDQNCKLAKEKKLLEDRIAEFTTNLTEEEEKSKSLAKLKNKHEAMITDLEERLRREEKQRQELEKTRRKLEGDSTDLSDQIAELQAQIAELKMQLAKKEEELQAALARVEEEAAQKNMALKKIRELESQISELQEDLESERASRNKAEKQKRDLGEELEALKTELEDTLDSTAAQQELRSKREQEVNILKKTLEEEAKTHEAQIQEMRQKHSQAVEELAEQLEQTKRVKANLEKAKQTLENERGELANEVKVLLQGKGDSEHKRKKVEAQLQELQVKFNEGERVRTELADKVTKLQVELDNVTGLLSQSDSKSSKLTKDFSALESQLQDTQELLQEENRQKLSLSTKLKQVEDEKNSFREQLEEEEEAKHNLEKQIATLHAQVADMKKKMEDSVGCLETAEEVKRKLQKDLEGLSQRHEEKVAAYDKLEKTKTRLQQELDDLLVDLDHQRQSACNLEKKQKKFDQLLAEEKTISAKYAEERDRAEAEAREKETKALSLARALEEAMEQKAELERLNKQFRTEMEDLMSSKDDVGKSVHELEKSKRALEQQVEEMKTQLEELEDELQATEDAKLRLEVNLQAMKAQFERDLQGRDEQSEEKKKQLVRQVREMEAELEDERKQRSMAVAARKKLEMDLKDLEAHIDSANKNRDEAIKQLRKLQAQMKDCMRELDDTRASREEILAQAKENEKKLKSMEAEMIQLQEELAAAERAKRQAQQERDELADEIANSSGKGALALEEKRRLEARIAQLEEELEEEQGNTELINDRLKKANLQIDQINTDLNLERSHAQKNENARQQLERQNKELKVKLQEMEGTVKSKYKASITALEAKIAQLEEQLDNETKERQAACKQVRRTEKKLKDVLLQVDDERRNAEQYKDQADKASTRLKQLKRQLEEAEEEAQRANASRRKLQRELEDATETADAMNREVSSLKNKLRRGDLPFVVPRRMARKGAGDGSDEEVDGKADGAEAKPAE

SMILES | tested on | assay | system | setting | scale | quantity | value
CCOC(=O)C1=C(CN2CCC[C@@H]2C(=O)Nc2ccc(B(O)O)cc2)NC(c2nccs2)=N[C@H]1c1ccc(F)cc1Br | hepatitis B virus |  | HepDES19 |  | relative to: CC50 over EC50 | selectivity index | 481
COc1cccc(-c2ccc(CN3CCCC(c4nc5ccc(C)cc5c(=O)[nH]4)C3)cc2)c1 (centres unmarked) | Vero-E6 | CellTiter-Glo ATP |  | 72 h, retest 8-point duplicates | relative to: DMSO 0%, hyamine -100%, more negative, more toxic | maximum response | -11.7%
CCOC(=O)C1=C(CN2CCN(Cc3ccc(B4OC(C)(C)C(C)(C)O4)cc3)CC2)NC(c2nccs2)=NC1c1ccc(F)cc1Br (centres unmarked) | hepatitis B virus |  | HepDES19 |  | relative to: CC50 over EC50 | selectivity index | 35
CCOP(=S)(OCC)SCSCC | Oncorhynchus kisutch | sulfoxide formation, substrate | liver microsomes | 30 min, pH 7.6, freshwater-acclimated |  | Km | 5.95 ± 1.79 µM
CCCCN(CCCC)CCCNC(=O)c1ccc2nc(N3CCCCC3)sc2c1 | Vero-E6 | CellTiter-Glo ATP |  | 72 h, retest 8-point duplicates | relative to: DMSO 0%, hyamine -100%, more negative, more toxic | maximum response | -7.19%
Fc1ccc(C2=CCNCC2)cc1 | Salmonella typhimurium | SOS/umu test | TA1535/pSK1002 | 0.5 mg/mL, 4 h, without S9, full range |  | survival | 98.8%
O=C(Nc1cc(F)c(F)c(F)c1)c1ccc(F)c(S(=O)(=O)NCc2cccc(B(O)O)c2)c1 | hepatitis B virus |  | HepAD38 |  | relative to: CC50 over EC50 | selectivity index | 8.73
Cc1cc(C(=O)NC(C)(C)COc2cccc3c2C(N)=NS(=O)(=O)N3)cc(C)n1 | Escherichia coli | Ames test, confirmatory | WP2 uvrA | 100 µg/plate | relative to: solvent control | revertant ratio | 1
CNC(=O)c1c(N(C)N=O)ncn1C | Salmonella typhimurium | plate incorporation | TA100, water | 5000 µg/plate, without S9 |  | revertant colonies per plate | 192 ± 19
[Cl-].[Cl-].[Pt+2].[Ru+2].c1ccc(-c2nc3ccccc3nc2-c2ccccn2)nc1.c1cnc2c(c1)ccc1cccnc12.c1cnc2c(c1)ccc1cccnc12 | Danio rerio |  | embryos | 60 µM, 12 h |  | survival rate | 83.3 ± 4.6%
CCOC(=O)C1=C(CN2CCCC2C(=O)Nc2ccc(B3OC(C)(C)C(C)(C)O3)cc2)NC(c2nccs2)=NC1c1ccc(F)cc1Br (centres unmarked) | hepatitis B virus |  | HepDES19 |  | relative to: CC50 over EC50 | selectivity index | 128
[Cl-].[Cl-].[Pt+2].[Ru+2].c1ccc(-c2nccnc2-c2ccccn2)nc1.c1cnc2c(c1)ccc1cccnc12.c1cnc2c(c1)ccc1cccnc12 | Danio rerio |  | embryos | 45 µM, 0 h |  | survival rate | 100%
COc1cccc(-c2n[nH]c(SCc3ccccn3)n2)c1OC | Escherichia coli | Ames test, plate incorporation | WP2 uvrA | 1.0 mg/plate, without S9 |  | revertant colonies per plate | 23
O=[N+]([O-])c1ccc(N2CCN(CCC(O)c3ccc(F)cc3)CC2)c(C(F)(F)F)c1 (centres unmarked) | Salmonella typhimurium | genotoxicity, SOS/umu test | TA1535/pSK1002 | 0.016 mg/mL, 4 h, without S9, full range |  | induction factor | 1.7
C[C@H]1CN(c2n[nH]c3nc(N[C@H]4CC[C@H](NS(=O)(=O)CCC(F)(F)F)CC4)ncc23)CCO1 | Myosin-9 (MYH9, Homo sapiens, UniProt P35579) | inhibitor, Kinobeads competition profiling |  | 0.032 µM | relative to: vehicle | relative abundance | 0.88
O=[N+]([O-])c1ccc(N2CCC(NCCC(O)c3ccc(F)c4ccccc34)CC2)c(C(F)(F)F)c1 (centres unmarked) | Salmonella typhimurium | SOS/umu test | TA1535/pSK1002 | 0.002 mg/mL, 4 h, with S9, full range |  | survival | 70%
[Cl-].[Cl-].[Pt+2].[Ru+2].c1ccc(-c2nc3cc4ccccc4cc3nc2-c2ccccn2)nc1.c1cnc2c(c1)ccc1cccnc12.c1cnc2c(c1)ccc1cccnc12 | Danio rerio |  | embryos | 90 µM, 72 h |  | hatching rate | 3.33 ± 2.9%
CCOC(=O)C1=C(CN2CCC[C@H]2C(=O)Nc2cccc(B(O)O)c2)NC(c2nccs2)=N[C@@H]1c1ccc(F)cc1Br | hepatitis B virus |  | HepDES19 |  | relative to: CC50 over EC50 | selectivity index | 1
COc1cc2c(Oc3ccc4[nH]c(C)cc4c3F)ccnc2cc1OCC1(N)CC1 |  |  | paediatric refractory sarcoma patients | 12 mg |  | Appendicitis incidence | 9.1%
Nc1ccn([C@@H]2CS[C@H](CO)O2)c(=O)n1 | hepatitis B virus |  | HepDES19 |  | relative to: CC50 over EC50 | selectivity index | > 125
O=[N+]([O-])c1ccc(NC2CCNCC2)c(C(F)(F)F)c1 | Salmonella typhimurium | SOS/umu test | TA1535/pSK1002 | 0.008 mg/mL, 4 h, without S9, full range |  | survival | 125%
CCOC(=O)C1=C(CN2CCN(Cc3ccccc3B(O)O)CC2)NC(c2nccs2)=NC1c1ccc(F)cc1Br (centres unmarked) | hepatitis B virus |  | HepDES19 |  | relative to: CC50 over EC50 | selectivity index | > 34
COc1ccnc(C(=O)N[C@H]2COC(=O)[C@H](Cc3ccccc3)[C@@H](OC(=O)C(C)C)[C@H](C)OC2=O)c1OCOC(=O)C(C)C | fish | mortality, geometric mean of 4 species |  | water exposure, flow-through, 96 h |  | LC50 | 3.82 ng/mL (≈ 6.21 nM)
CC(=O)N1CCC(C(=O)N2CCN3C(=O)c4cc(-c5ccccc5)ccc4NC(=O)C3C2)CC1 (centres unmarked) | Escherichia coli |  | WP2 uvrA | 1581 µg/plate, without S9 |  | revertants per plate | 31
O=c1cccc(O)c(O)c1O | hepatitis B virus |  | HepDES19 |  | relative to: CC50 over EC50 | selectivity index | 2.73
CCOC(=O)C1=C(CN2CCC(C(=O)Nc3cccc(B(O)O)c3)C2)NC(c2nccs2)=NC1c1ccc(F)cc1Br (centres unmarked) | hepatitis B virus |  | HepDES19 |  | relative to: CC50 over EC50 | selectivity index | 30

For quick reference, copied from above:
SMILES | tested on | assay | system | setting | scale | quantity | value
COc1cc2c(Oc3ccc4[nH]c(C)cc4c3F)ccnc2cc1OCC1(N)CC1 |  |  | paediatric refractory sarcoma patients | 12 mg |  | Appendicitis incidence | 9.1%
Nc1ccn([C@@H]2CS[C@H](CO)O2)c(=O)n1 | hepatitis B virus |  | HepDES19 |  | relative to: CC50 over EC50 | selectivity index | > 125
O=[N+]([O-])c1ccc(NC2CCNCC2)c(C(F)(F)F)c1 | Salmonella typhimurium | SOS/umu test | TA1535/pSK1002 | 0.008 mg/mL, 4 h, without S9, full range |  | survival | 125%
